Measurements pooled from the literature.
Every numbered part comes from another study and shows a few of its results, in no order. Substitutions count along the parent as printed.

Sample 1
Target: CCNB2, cyclin fold, Cln2 fusion (human)
Technique: yeast growth competition, sequencing
Matrix: yeast
Notes: weak parent motif
Relative to: not given
Reading: higher = stronger binding
Parent: SAMHD1 docking peptide (human); ASKSRVQLFKDDP
For `ASKSRVQLFKLDP [D11L]`, “normalised enrichment score” read -0.13.
Under “normalised enrichment score”, `ASKSRLQLFKDDP [V6L]` is recorded as 0.175.
For `ASKSRVQLFADDP [K10A]`, “normalised enrichment score” read 0.0554.
`ASKSRVQLFKDVP [D12V]`: “normalised enrichment score” 0.596.
`ASKERVQLFKDDP [S4E]` — result for “normalised enrichment score”: -0.491.
`ASKSDVQLFKDDP [R5D]`: “normalised enrichment score” -0.503.
For `ASKSQVQLFKDDP [R5Q]`, “normalised enrichment score” read -0.276.
Under “normalised enrichment score”, `AIKSRVQLFKDDP [S2I]` is recorded as 0.666.
`ASKSRVQWFKDDP [L8W]`: “normalised enrichment score” 0.175.
`ASKSRVQGFKDDP [L8G]` — result for “normalised enrichment score”: 0.391.
For `ASKSRVQFFKDDP [L8F]`, “normalised enrichment score” read 0.089.
`ASISRVQLFKDDP [K3I]`: “normalised enrichment score” 0.105.
Under “normalised enrichment score”, `ASKSRVQLFKDFP [D12F]` is recorded as -0.0455.
For `ASKSRVQHFKDDP [L8H]`, “normalised enrichment score” read -0.273.
`ASKSRVSLFKDDP [Q7S]`: “normalised enrichment score” 0.0381.
`ASKSRVQIFKDDP [L8I]` — result for “normalised enrichment score”: -0.0398.
Under “normalised enrichment score”, `ALKSRVQLFKDDP [S2L]` is recorded as 0.0702.
`ASKSRVQLFQDDP [K10Q]` — result for “normalised enrichment score”: -0.0919.
`ASKSRVNLFKDDP [Q7N]` — result for “normalised enrichment score”: 0.35.
`AWKSRVQLFKDDP [S2W]` — result for “normalised enrichment score”: 0.267.
`AKKSRVQLFKDDP [S2K]`: “normalised enrichment score” 0.241.
Under “normalised enrichment score”, `ASKSRVQLFKDMP [D12M]` is recorded as 0.238.
`ANKSRVQLFKDDP [S2N]` — result for “normalised enrichment score”: 0.364.
`ASKSRVTLFKDDP [Q7T]` — result for “normalised enrichment score”: 0.0336.
`ASKSRVQLFKDWP [D12W]` — result for “normalised enrichment score”: -0.0553.

Sample 2
Target: ABI1, truncated, D143A, DHFR fusion (Arabidopsis thaliana)
Technique: DHFR PCA, deep sequencing
Matrix: yeast
Notes: methotrexate growth selection, single substitutions
Added: (+)-ABA 0.0091 µM
Relative to: wild-type fitted maximum
Reading: higher = stronger binding
Parent: PYL1, truncated, DHFR fusion (Arabidopsis thaliana); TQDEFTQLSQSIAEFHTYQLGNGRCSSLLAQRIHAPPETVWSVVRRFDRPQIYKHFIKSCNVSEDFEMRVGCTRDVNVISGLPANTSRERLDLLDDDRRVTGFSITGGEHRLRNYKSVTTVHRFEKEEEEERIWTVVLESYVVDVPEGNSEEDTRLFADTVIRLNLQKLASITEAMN
`S11I`: “relative binding score” 27.7%.
Under “relative binding score”, `V40G` is recorded as -3.21%.
`E151W` — result for “relative binding score”: 6.42%.
Under “relative binding score”, `D97A` is recorded as 24.9%.
For `A175W`, “relative binding score” read 0.691%.
For `E152F`, “relative binding score” read 0.392%.
Under “relative binding score”, `L166N` is recorded as -2.02%.
Under “relative binding score”, `R132S` is recorded as 48.5%.
For `F5H`, “relative binding score” read 4.06%.
For `Q31D`, “relative binding score” read 0.534%.
Under “relative binding score”, `Q7P` is recorded as 4.39%.
Under “relative binding score”, `F157N` is recorded as -3.38%.
`I57Q`: “relative binding score” -5.04%.
For `T135N`, “relative binding score” read 1.76%.
For `G71I`, “relative binding score” read 0.155%.
`L164P`: “relative binding score” -5.27%.
Under “relative binding score”, `G102Y` is recorded as -9.81%.
Under “relative binding score”, `E125N` is recorded as 20.4%.

Sample 3
Target: CREBL2, bZIP domain (human)
Technique: DHFR protein complementation
Matrix: yeast
Notes: single substitutions, most at no-binding floor
Relative to: wild-type JUN-FOS pair
Reading: higher = stronger binding
Parent: JUN, bZIP domain (human); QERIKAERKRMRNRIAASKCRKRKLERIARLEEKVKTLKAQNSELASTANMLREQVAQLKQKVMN; partner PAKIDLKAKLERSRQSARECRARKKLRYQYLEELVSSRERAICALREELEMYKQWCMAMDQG
`L45I` has a binding fitness of -1.42 natural log.
`V56H` gave a binding fitness of -1.51 natural log.
The binding fitness of `S47D` is reported as -1.49 natural log.
`E33V` has a binding fitness of -1.47 natural log.
`A49C` gave a binding fitness of -1.56 natural log.
`R30M` has a binding fitness of -1.5 natural log.
For `I28T`, the binding fitness was -1.45 natural log.
`L45K` has a binding fitness of -1.63 natural log.
With `Q55S` the binding fitness was -1.46 natural log.
With `M51D` the binding fitness was -1.23 natural log.
With `A49P` the binding fitness was -1.49 natural log.
For `A46L`, the binding fitness was -1.37 natural log.
For `A57S`, the binding fitness was -1.25 natural log.
`M51S` has a binding fitness of -1.28 natural log.
`E32P` has a binding fitness of -1.51 natural log.
`A40S` has a binding fitness of -1.57 natural log.
The binding fitness of `K39S` is reported as -1.52 natural log.
For `M51K`, the binding fitness was -1.35 natural log.
`E33I` gave a binding fitness of -1.43 natural log.
`A29E` has a binding fitness of -1.39 natural log.
`S47I` has a binding fitness of -1.32 natural log.
The binding fitness of `S43I` is reported as -1.24 natural log.
`Q55P` gave a binding fitness of -1.44 natural log.
The binding fitness of `E54L` is reported as -1.62 natural log.
For `L38A`, the binding fitness was -1.3 natural log.

Sample 4
Target: Sal-like protein 4, full length isoform B (SALL4, Homo sapiens, UniProt Q9UJQ4-2, residues 1-616)
Technique: universal PBM
Molecule type: double-stranded DNA, one strand shown
Matrix: in vitro
Tested at: not given
Notes: 8-mer, flanks averaged, mean of replicates
Reading: higher = stronger binding
For `ACCAAAAT`, the E-score was 0.139.
`CTCCCGAA` has an E-score of -0.146.
The E-score of `AAACCCCC` is reported as -0.167.
The E-score of `GCGAGAAA` is reported as -0.0265.
The E-score of `CGTCCGTC` is reported as -0.326.
The E-score of `TACGCGTA` is reported as 0.0253.
With `GCAGCACC` the E-score was -0.17.
For `CATAGCCC`, the E-score was -0.198.
`GTTGCGTA` gave an E-score of -0.00286.
`CTGTTGTC` has an E-score of -0.103.
The E-score of `AGTCGTCA` is reported as -0.0543.
For `GTCTCAAA`, the E-score was 0.0594.
`CCTAGTCC` has an E-score of -0.133.
`AGATAAGA` has an E-score of 0.273.
`ACAGCGAC` has an E-score of -0.252.
`CTACTGCC` gave an E-score of -0.189.
`CATGAGCC` has an E-score of -0.132.
The E-score of `GTTGTCGA` is reported as -0.0359.
For `CATGTAGG`, the E-score was 0.135.
`ATGTCCAC` has an E-score of -0.0546.
With `CGTTAAAC` the E-score was 0.0864.
`CAAGCAAG` gave an E-score of -0.21.

Sample 5
Target: RNA binding protein fox-1 homolog 2, RRM domain, GST-SBP tag (RBFOX2, Homo sapiens, UniProt O43251-10, residues 100-194)
Technique: RNA Bind-n-Seq
Molecule type: RNA
Matrix: in vitro
Tested at: 365 nM
Notes: natural RNA segment, single round, ends assumed
Relative to: no-protein control
Reading: higher = stronger binding
Residues (chain): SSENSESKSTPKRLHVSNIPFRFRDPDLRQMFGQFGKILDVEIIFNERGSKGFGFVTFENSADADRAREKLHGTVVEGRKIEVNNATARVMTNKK
`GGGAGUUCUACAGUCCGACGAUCCCGCCACUCCCUACGCCCACCAUUAGGACCAUCUCUGGGUGGAACAUUUUGUGUGUGCAGACAAGGGUGAGGAGACUCGCCAGCCUGCUCUCUCAGGAGCACGUGUGAACUGGAAUUCUCGGGUGCCAA`: “RBNS enrichment (R)” 0.192.
`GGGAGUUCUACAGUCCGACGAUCGGGCUCCUCCAGGCCAGGGCCCUACACAAGAACUGUCCCCCAGCUCUGCUAUCCCCAUGGCCAUGAAGGCUCCCUACCCCCAGAUGCCCACUCUCUCCACCUUUAUUUGCUGGAAUUCUCGGGUGCCAA`: “RBNS enrichment (R)” 0.645.
`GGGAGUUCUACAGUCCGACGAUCAGUGGGGGAAAGUGCUAUUUCCUAUUUUCACCAAAAUUGGGGAAGGAGUGCCACUUUCCAGCUCCACUUCAAAUUCCUUAAAAUAUAACUGAGAUUGCUGUGGGGAGGGAUGGAAUUCUCGGGUGCCAA`: “RBNS enrichment (R)” 0.543.
Under “RBNS enrichment (R)”, `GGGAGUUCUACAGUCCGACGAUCUGCAGUUUAGACACAUGUUUUUGGGGUGUCUUUCUGGUGUCCAAACUUUUGAGGCACUUUUCAAAUUUAAUAAGGAACCAUGUAAGGGUAGCAGCCCCUCCCUAAAGCAUUGGAAUUCUCGGGUGCCAA` is recorded as 0.529.
For `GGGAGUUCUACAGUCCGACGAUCAGGCAAAAAAUAACGCACUAGUCACUGAAGUUCAUCCUCAGUUACCUCGAUAGGGUAGGUAGAUUCCUAAUAGUGCUGGUGAGCAUCACAAUGCUGUGCAAAGAUUCAAGUGGAAUUCUCGGGUGCCAA`, “RBNS enrichment (R)” read 0.423.
`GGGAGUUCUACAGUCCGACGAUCAAUACCUGUGGAAAACCAGGGAUCCUCUCCUGUUUCUCUCUCUUGCCUCCCCCUUUCCCUCCAUUCCUCUGUCGCCUCCCCCUCUCCUCCACUUUCUUUAAGAAUCAGGGUGGAAUUCUCGGGUGCCAA` — result for “RBNS enrichment (R)”: 0.761.
`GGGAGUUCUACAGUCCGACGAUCAGUGUAGGUGAUUACAUUAGCCUUUGAAGUCAACACAAAGUUUAAAACUUCCAGGAUUUUGCAAAGUUGUAUAUAUUUAAUGCUGUGCAACUGCUAAACUAUGCAGUUUUUGGAAUUCUCGGGUGCCAA` — result for “RBNS enrichment (R)”: 0.882.
For `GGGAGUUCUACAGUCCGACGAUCACUUGAUUGCUUUCCAGUUUAAUGAAAGCUUAGAUGUCCCUGCGAACCCACAAUCUCCACCAGCAGAGCUGGUGUUGUUCUGAAUAGUGCAGACUGAUUCGAACACAAGGUGGAAUUCUCGGGUGCCAA`, “RBNS enrichment (R)” read 0.292.

Repeated from above (sample 4):
For `CATGTAGG`, the E-score was 0.135.
The E-score of `AAACCCCC` is reported as -0.167.
With `GCAGCACC` the E-score was -0.17.
`ATGTCCAC` has an E-score of -0.0546.
`CTCCCGAA` has an E-score of -0.146.
`CATGAGCC` has an E-score of -0.132.
